Measurements from different studies.
Numbered parts are unrelated; each lists some results of a single study. Substitutions count along the parent as printed.

Series 1
Target: RING finger protein unkempt homolog, zinc fingers 1-6, GST-SBP tag (UNK, Homo sapiens, UniProt Q9C0B0, residues 30-357)
Technique: RNA Bind-n-Seq
Molecule type: RNA
Matrix: in vitro
Concentration: not given
Setting: RNA with constant flanks, ends assumed
Relative to: input RNA pool
Direction: higher = stronger binding
Endpoint: bound/input enrichment
Shared flanks, not repeated: GGGAGUUCUACAGUCCGACGAUC … CAACAGAGGAUUGAGCAUCA
Residues (chain): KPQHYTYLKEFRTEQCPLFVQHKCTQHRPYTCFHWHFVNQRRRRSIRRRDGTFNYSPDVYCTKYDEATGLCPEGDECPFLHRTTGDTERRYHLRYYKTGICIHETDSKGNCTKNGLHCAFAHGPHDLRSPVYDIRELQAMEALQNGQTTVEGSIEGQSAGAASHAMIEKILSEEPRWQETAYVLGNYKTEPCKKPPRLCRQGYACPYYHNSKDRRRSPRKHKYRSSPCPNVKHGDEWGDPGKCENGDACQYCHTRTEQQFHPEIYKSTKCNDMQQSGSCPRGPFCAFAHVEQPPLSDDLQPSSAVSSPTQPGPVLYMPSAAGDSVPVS
CGGUGAUGUCCUUACUGUCCCCAGCCAGGGCCGGGGACCGGUGUUUCACUGAGGACCUGCAUCCGAAACAUUUUUUAAAUUGUUGUACAGGAAGAGAUGUGUCUAAAACAGCAUCUUAAA: 0.176 ratio
AUCACUUUGACCCAGAUUGUGUGACAUACACCUGAGAGGAAUUGAGGGAGUAUUGGUGUCCCGGUUGUCAUGUUUCUGUUUUGUGACACAGUGGAUGGAAAGGUUUGUCCUCUUCCUACU: 0.115 ratio
CUUGAACCUAACAAGUCCAUCUUCAAGCAAAUGAAAACUCAUCCACCAUACACCAUGUGCUUCCGAGUGAAAUUCUACCCACAUGAACCCUUGAAGAUUAAAGAAGAGCUCACAAGAUAC: 0.134 ratio
CAGAUUCACAGGGAUUUGAAAGCUGGUAAUAUUCUUCUGGGUGAGGAUGGUUCAGUACAAACCGCAGAUUUUGGGGUAAGUGCGUUCCUAGCAACAGGGGGUGAUGUUACCCGAAAUAAA: 0.207 ratio
ACCGUGCCCUAGAAUUUGCCCCUGCCUGCCAUCGCUUCAAAAUCCUCAAGGCAGAAUGUUCCGCAAUGCUGGGUCGUUAUCCAGAAGCACAGUCUGUGGCUAGUGACAUUCUACGAAUGG: 0.346 ratio
GCUGAUUUUGAGAAGGUUUUCUCUAUUGGACCAGUAUUCAGAGCGGAAGACUCUAAUACCCACCGACAUCUAACUGAGUUUGUUGGUUUGGACAUUGAAAUGGCUUUUAAUUACCAUUAC: 0.116 ratio
AAAUACUUAGCACAGUUACUAAACAGUGUACGAUUACCAUUGUUGAGUGUUAAGUUUCUCACCCGACUAUAUGAAGCAAAUCAUCUUAUUCGUGAUGAUCGCACUUGUAAACAUCUUUUG: 0.12 ratio
AAAUUUAAGUUUUCUUGUAUUGAAAAUAACCUAUGAUUGUAUGUUUUGCAUUCCUAGAAGCCGGUUAACUGUGUUUUUAAAUUGUUAUAACUUCACACCUUUUUGAAAUCUGCCCUACAA: 0.286 ratio
UAACAGUCAAUCAGCAACUGCAGGACUCACGAAAGGUACAAGUCUGUGGUAUCAUCUUGCCCGCAUCUAUGUUGUGGUGUGCCAAGCCUGAUGGGCAGUAAGCUUCCUGUGAUGUUUGUC: 0.071 ratio
UUUGGUGCACAAAAUCCUUCUGUGGGCAAAACUUUGUUUUUGUUUUGCACAGUAAGAAACAACCGGCAAGCGUUAUGUUUUUGGUAAGUUAACUAUGAAAGCUUUCUUAUUUUUAUUAUU: 0.69 ratio
UAACAUUUUUUUAAAAUAUUGAUUGAUUGAUUGAUUGAUUCUAUGUAUGUGAGUACACUGCCGCUGUACAGAUGGUUGUGAGCCUUCAUGUGGUUGUUGGGGAUUGAAUUUUAGGACCUC: 0.881 ratio

Series 2
Target: ABI1, truncated, D143A, DHFR fusion (Arabidopsis thaliana)
Technique: DHFR PCA, deep sequencing
Matrix: yeast
Setting: methotrexate growth selection, single substitutions
Added: (+)-ABA 0.0091 µM
Relative to: wild-type fitted maximum
Direction: higher = stronger binding
Endpoint: relative binding score
Starting sequence: PYL1, truncated, DHFR fusion (Arabidopsis thaliana); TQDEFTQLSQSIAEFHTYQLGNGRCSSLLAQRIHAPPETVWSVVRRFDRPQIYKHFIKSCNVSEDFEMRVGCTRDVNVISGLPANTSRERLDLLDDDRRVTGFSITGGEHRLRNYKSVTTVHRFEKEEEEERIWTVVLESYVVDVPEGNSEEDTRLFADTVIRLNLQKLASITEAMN; partner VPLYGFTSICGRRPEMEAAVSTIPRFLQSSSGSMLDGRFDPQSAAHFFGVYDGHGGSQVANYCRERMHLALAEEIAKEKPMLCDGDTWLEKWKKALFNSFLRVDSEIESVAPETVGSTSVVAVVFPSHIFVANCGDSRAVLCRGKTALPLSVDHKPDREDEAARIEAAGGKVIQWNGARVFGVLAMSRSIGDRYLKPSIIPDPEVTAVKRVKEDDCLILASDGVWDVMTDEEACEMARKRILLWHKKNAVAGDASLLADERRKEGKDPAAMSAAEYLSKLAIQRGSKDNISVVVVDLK
A30Q: -4.04%
T1R: 23.3%
L91D: 10%
S117P: 0.523%
N85L: 62.4%
P37K: -6.19%
T154N: -4.73%
S42T: 3.63%
H122D: -1.37%
A13Q: 40.3%
S80W: 63.7%

Series 3
Target: Fragile X messenger ribonucleoprotein 1, C-terminal low-complexity region (Fmr1, Mus musculus, UniProt P35922)
Technique: RNA Bind-n-Seq
Molecule type: RNA
Matrix: in vitro
Concentration: 200 nM
Setting: whole 134-nt RNA, ends assumed
Added: 150 mM LiCl
Relative to: input library
Direction: higher = stronger binding
Endpoint: log2 enrichment
Each molecule: 7-deaza-guanosine replaces G
Shared flanks, not repeated: GGGAGUUCUACAGUCCGACGAUC … UGGAAUUCUCGGGUGUCAAGG
UGGCCCUGGUGGCAUGCGGGGAGGAAGAGGUGGCCUCAUGGAUCGUGGUGGUCCCGGUGGAAUGUUCAGAGGUAGCCGUGGUGGAGACAG: -0.47
CACAGACAACACGCACCCACACAGACACAGAGGGAAGGGGUAGGGAUGGGGACAGGGUGCACAGCAGGGCGGGGUAGGACCCCAGCCCCU: -0.673
GUCCUGUGCUACACAUCGUAUGUACCGAAUCGGCCCCCGGGGCCCCCGGGCCCCCGGGAAAGUAUUAUGUUACGCCGUUCGGAUCUGCAC: -2.56
CCUCAAGUCCUGUGCUACACAUCGUAUGUACCGAAUCGGCCGGCCGGCCGGGAAAGUAUUAUGUUACGCCGUUCGGAUCUGCACUUCCAG: -0.112
AGUCCUGUGCUACACAUCGUAUGUACCGAAUCGGCCCCCGGGCCCCCGGGCCCCCGGAAAGUAUUAUGUUACGCCGUUCGGAUCUGCACU: -2.23
CUCAAGUCCUGUGCUACACAUCGUAUGUACCGAAUCGGAGGAGGAAAAAAAGGAAAGUAUUAUGUUACGCCGUUCGGAUCUGCACUUCCA: -1.2
CAAGUCCUGUGCUACACAUCGUAUGUACCGAAUCGGGGCCGGGGCCGGGCCGGGGAAAGUAUUAUGUUACGCCGUUCGGAUCUGCACUUC: 0.432
GCAGGAAGUAAAAACAAAUGGAAAUGCUUCGGAUAGUGGCAGGGGUGGGGGUUGCUAAGGAAAGGGUGGGAUGGGCGUGGGUAAAGAGUU: 1.23
CAAGUCCUGUGCUACACAUCGUAUGUACCGAAUCGGGCCCGGCCCGGGCCCGGGGAAAGUAUUAUGUUACGCCGUUCGGAUCUGCACUUC: -3.2
GCAGGAAGUAAAAACAAAUGGAAAUGCUUCGGAUAGUGGCAGGGGUGGGGGUUGCUAAGGAAAGGGUGGGAUGGGAGUGGGUACAGAGUU: 1.29
UAACUUUAGAGGAGGAUCUGAUGGAUAUGGCGGUGGACGUGGAUUUGGGGAUGGCUAUAAUGGGUAUGGAGGAGGACCUGGAGGUGGCAA: 0.368

Series 4
Target: CCNE2, cyclin fold, Cln2 fusion (human)
Technique: yeast growth competition, sequencing
Matrix: yeast
Setting: weak parent motif
Relative to: not given
Direction: higher = stronger binding
Endpoint: normalised enrichment score
Starting sequence: CDC6 docking peptide (human); TLKGRRLVFDNQL
L2R: 1.27
T1C: 0.883
R5F: 0.388
L2P: 0.574
G4N: 0.702
D10H: 0.672
N11P: 0.897
L13Y: 1.65
K3C: 0.591
V8Q: -0.244
G4L: 0.349
D10E: -0.528
F9G: -0.278
N11D: 0.11
N11L: 0.1
T1A: 1.2

Other studies, line by line
Technique: cross-linking MS
MAGOH (Homo sapiens, UniProt P61326)
interaction screen (PNN (Homo sapiens, UniProt Q9H307); hits only): cross-linked

RBM39 (Homo sapiens, UniProt Q14498)
cross-linked residues (SREK1 (Homo sapiens, UniProt Q8WXA9); cell fractions; added: DSSO): K244 to K94

EEF1G (Homo sapiens, UniProt P26641)
cross-linked residues (DNAH17 (Homo sapiens, UniProt Q9UFH2); cell fractions; added: DSSO): K208 to K1558

DDX39B (Homo sapiens, UniProt Q13838)
cross-linked residues (CCDC146 (Homo sapiens, UniProt Q8IYE0); cell fractions; added: DMTMM): K155 to E286

Excerpt of the above (series 2):
L91D: 10%
S117P: 0.523%
N85L: 62.4%
P37K: -6.19%
T154N: -4.73%
S42T: 3.63%
